Experimental data collected from several papers.
Protocols differ between the studies behind these lines. ± marks the error that the study gave.

With Cl.NCc1ccc2c(c1)CN(C1CCC(=O)NC1=O)C2=O (centres unmarked) the half-life was 0.122 h (male Beagle dog, whole blood).
The half-life of CCC1(CC)CC(=O)N(C2CCOc3ccc(C(=O)NC4CC(C)(C)Oc5ccccc54)cc32)C(=N)N1 (centres unmarked) is reported as 12.8 ± 6.9 h (beagle dog male, plasma).
N#Cc1ccnc(N2C(=O)CC[C@H]2C(=O)N(c2cc(F)cc(F)c2)[C@H](C(=O)NC2CC(F)(F)C2)c2ccccc2Cl)c1 (stereo in doubt) gave a half-life of 32.5 h (beagle dog, plasma).
The half-life of Nc1nc2cnc(C(=O)N3CCOC[C@@H]3c3ccc(C(F)(F)F)cc3)cc2c2c1COC2 is reported as 9.1 h (dog; 2 mg/kg).
For CCC1(CC)CC(=O)N(C2c3cc(C(=O)NC4c5ccccc5CC4O)ccc3OC2(C)COC)C(=N)N1 (centres unmarked), the half-life was 11 ± 4.4 h (beagle dog male, plasma).
With OCC1OC(n2cnc3c(NCc4ccc(Br)s4)ncnc32)C(O)C1O (centres unmarked) the half-life was 6.9 to 9.4 h (Beagle dogs, both sexes, blood; oral, 3 mg/kg).
CCCC[C@H](OC(C)=O)c1ccccc1C(=O)O gave a half-life of 0.33 ± 0.14 h (beagle dog, both sexes, whole blood; intravenous, 0.5 mg/kg, single dose, fitted within 1 h).
For N#Cc1ccnc(N2C(=O)CC[C@H]2C(=O)N(c2cncc(F)c2)[C@H](C(=O)NC2CC(F)(F)C2)c2ccccc2Cl)c1, the half-life was 19 h (beagle dog, plasma).
